Results of several laboratories.
Compare with care: the assays were run in different laboratories. “And” joins repeats or separate records; there may be more than shown. ± marks the error that the study gave.
CGAS catalytic domain; with DNA: Cyclic GMP-AMP synthase, catalytic domain; with DNA (CGAS, Homo sapiens, UniProt Q8N884)
HTR3A: 5-hydroxytryptamine receptor 3A (HTR3A, Homo sapiens, UniProt P46098)

SMILES = CN1CC(Oc2cnc(C#N)cc2-c2ccn3nc(NC(=O)C4CC4)cc3c2)C1; target = Casein kinase II subunit alpha' (CSNK2A2, Homo sapiens, UniProt P19784); test = inhibitor, KinaseProfiler panel; setting = 1 µM; inhibition = -1%
SMILES = Cc1nn(-c2nc3ccccc3[nH]2)c(O)c1C(c1ccccc1C(=O)O)c1c(C)nn(-c2nc3ccccc3[nH]2)c1O; target = CGAS catalytic domain; with DNA; test = liquid-liquid phase separation, inhibitor; setting = 2.5 µM; inhibition = 87.2%
SMILES = C#Cc1cc(-c2cc(Nc3nc(N[C@@H](C)c4ccc(F)cn4)ncc3Cl)n[nH]2)ccc1C=O; target = High affinity nerve growth factor receptor (NTRK1, Homo sapiens, UniProt P04629, A608D/G595R); test = enzyme activity, inhibitor; setting = 0.2 µM; inhibition = 101%
SMILES = OO; target = Histone acetyltransferase GCN5, with Ada2 and Ada3 (Saccharomyces cerevisiae S288c, UniProt Q03330); test = enzyme activity, inhibitor; setting = 250 µM, Gcn5-Ada2-Ada3 complex, no DTT, added: [3H]acetyl-CoA; inhibition = 8 ± 9%
SMILES = O=C(NO)c1ccc(CN2CCCCc3ccccc32)c(F)c1; target = Beta-3 adrenergic receptor (ADRB3, Homo sapiens, UniProt P13945); test = radioligand binding, radioligand displacement; setting = 10 µM; inhibition = 6.54%
SMILES = COc1ccc(F)cc1C(=O)NCc1ccc(-c2nn([C@@H](C)C(F)(F)F)c(N)c2C(N)=O)cc1; target = Tyrosine-protein kinase BTK (BTK, Homo sapiens, UniProt Q06187); test = probe binding, competitive chemoproteomics; system = human PBMCs; setting = 1 µM; inhibition = > 90%
SMILES = O=C(Nc1cccc2c(=O)cc(-c3nnn[nH]3)oc12)c1ccc(OCCCCc2ccccc2)cc1; target = Volume-regulated anion channel subunit LRRC8C, part LRRC8A IL1 chimera (LRRC8C, Homo sapiens, UniProt Q8TDW0, L136K); test = ion current, inhibitor, whole-cell patch clamp; system = HCT LRRC8-/- cells; setting = 3 µM, -100 mV; inhibition = 85% and 75.2% and 90.7% and 77.7%
SMILES = CNc1ccc(-c2nc3ccc(O)cc3s2)cc1; target = Amyloid-beta precursor protein, amyloid-beta (APP, Homo sapiens, UniProt P05067); test = binding, competition binding; system = amyloid-beta aggregates; setting = 3.704 nM, added: tritiated amyloid ligand; inhibition = 54.2% and 53%
SMILES = Cc1nn(-c2nc3c(F)cc(F)cc3s2)c(O)c1C(c1ccccc1C(=O)O)c1c(C)nn(-c2nc3c(F)cc(F)cc3s2)c1O; target = CGAS catalytic domain; with DNA; test = cGAS phase separation, inhibitor; setting = 10 µM; inhibition = 101%
SMILES = COc1cc(-c2cc(C(C)=O)n3ccccc23)cc(OC)c1Cn1ccnc1; target = Transcription intermediary factor 1-alpha (TRIM24, Homo sapiens, UniProt O15164); setting = 1 µM; inhibition = -3.78%
SMILES = O=C1c2ccccc2CCN1CCCCN1CCN(c2ccccn2)CC1; target = HTR3A; test = radioligand binding; setting = concentration not given, added: [3H]GR65630; inhibition = 36.6%
SMILES = C[C@@H]1CCO[C@H]2Cn3cc(C(=O)NCc4ccc(F)cc4F)c(=O)c(O)c3C(=O)N12; target = Solute carrier family 22 member 3 (SLC22A3, Homo sapiens, UniProt O75751); test = transport; system = MDCK-II, transfected; setting = 30 µM, added: MPP+ 2 µM; inhibition = -1.2%
SMILES = Ic1cccc2cnccc12; target = ATP-binding cassette sub-family C member 8 (ABCC8, Cricetus cricetus, UniProt Q09427); test = binding, radioligand binding; setting = 10 µM; inhibition = 0%
SMILES = O=C(c1ccc(OCCN2CCCCC2)cc1)c1c(-c2ccc(O)cc2)sc2cc(O)ccc12; target = Trypanothione synthetase (Leishmania infantum, UniProt A4I2Z3); test = enzyme activity, inhibitor, phosphate release; setting = 25 µM; inhibition = 41.3 ± 4.9%
SMILES = COc1cc2c(cc1OC)C(=O)C(CC1CCN(Cc3ccccc3)CC1)C2 (stereo not shown); target = HTR3A; test = radioligand binding; setting = concentration not given, added: [3H]GR65630; inhibition = 10.7%
SMILES = Cc1nn(-c2nc3c(F)cc(F)cc3s2)c(O)c1C(c1ccccc1C(F)(F)F)c1c(C)nn(-c2nc3c(F)cc(F)cc3s2)c1O; target = Cyclic GMP-AMP synthase (CGAS, Homo sapiens, UniProt Q8N884); test = enzyme activity, inhibitor, pyrophosphatase-coupled; setting = 25 µM, 1.5 h, added: HT-DNA; inhibition = 64.5%
SMILES = CCc1oc2ccccc2c1C(=O)c1cc(Br)c(O)c(Br)c1; target = Solute carrier family 22 member 12 (SLC22A12, Homo sapiens, UniProt Q96S37, F360A); test = uric acid uptake; system = HEK293T transfected with SLC22A12 F360A; setting = 0.5 µM, 10 min, 37 °C, mean, added: [14C]urate 200 µM; inhibition = 65.2%
SMILES = COc1ccc(C2=N[C@@H](c3ccc(Cl)cc3)[C@@H](c3ccc(Cl)cc3)N2C(=O)N2CCNC(=O)C2)c(OC(C)C)c1; target = Trypanothione synthetase (Trypanosoma brucei brucei, UniProt Q586P2); test = enzyme activity, inhibitor, phosphate release; setting = 25 µM; inhibition = 39.8 ± 5.2%
SMILES = CN1CCN(c2cc(-c3ccncc3)c(-c3ccc4ccccc4c3)nn2)CC1; target = Gastrin-releasing peptide receptor (GRPR, Homo sapiens, UniProt P30550); test = antagonist, FLIPR; setting = 10 µM; inhibition = 10.9%
SMILES = CC[C@@H]1[C@H](F)C(=O)N[C@@H]1COc1nccc2cc(C(N)=O)c(OC)cc12; target = Dual specificity mitogen-activated protein kinase kinase 6 (MAP2K6, Homo sapiens, UniProt P52564); test = ATP-site probe binding, ActivX profiling; system = THP-1 cell lysate; setting = 0.01 mM, Lys2 site; inhibition = 7.4%
SMILES = Cc1cc2c(cc1N1C(=O)c3cccc4c(CCCO)ccc(c34)C1=O)n(C)c(=O)n2C (racemic); target = ATPase family AAA domain-containing protein 2 (ATAD2, Homo sapiens, UniProt Q6PL18); test = binding, BROMOscan binding; setting = 100 nM; inhibition = 93%
SMILES = COc1cc(C(=O)NS(=O)(=O)c2ccccc2C)ccc1Cc1cn(C)c2ccc(NC(=O)OC3CCCC3)cc12; target = Volume-regulated anion channel subunit LRRC8C, part LRRC8A IL1 chimera (LRRC8C, Homo sapiens, UniProt Q8TDW0, L105R); test = ion current, inhibitor, whole-cell patch clamp; system = HCT LRRC8-/- cells; setting = 10 µM, +100 mV; inhibition = 61% and 86.3% and 67.2% and 83.4% and 75.3% and 88.6%
SMILES = COc1ccccc1N1CCN(CCCCN2CCc3ccccc3C2=O)CC1; target = HTR3A; test = radioligand binding; setting = concentration not given, added: [3H]GR65630; inhibition = 27.1%
SMILES = CS(=O)(=O)Nc1cccc(-c2csc(NC(=O)CSc3nc4nccnc4c(=O)n3CCc3ccccc3)n2)c1; target = Phosphatidylinositol 4,5-bisphosphate 3-kinase catalytic subunit beta isoform, with p85 beta (PIK3CB, Homo sapiens, UniProt P42338); test = kinase activity, inhibitor; setting = 10 µM, added: PIK3R2 complex; inhibition = -3%
SMILES = COc1ccc2c(c1)C(=O)N(CCCN1CCN(c3ccccc3OC)CC1)C2; target = HTR3A; test = radioligand binding; setting = concentration not given, added: [3H]GR65630; inhibition = -3.4%
SMILES = CN(C(=O)n1cnc(-c2ccc[n+]([O-])c2)c1)C1CCCCC1; target = Vasopressin V1a receptor (AVPR1A, Homo sapiens, UniProt P37288); setting = 10 µM; inhibition = -8%
SMILES = CCCCCCCCN(CCC(=O)Nc1ccccc1)C(=O)[C@H]1CCCN1; target = Protein-S-isoprenylcysteine O-methyltransferase (Homo sapiens, UniProt O60725); test = enzyme activity; system = Sf9 membranes; setting = 50 µM, added: biotin-farnesyl-L-cysteine; inhibition = 61%
SMILES = COc1cccc(OC[C@@H]2CN(CC(=O)N3CCc4ccccc43)CCO2)c1; target = HTR3A; test = radioligand binding; setting = concentration not given, added: [3H]GR65630; inhibition = 18.6%

Excerpt of the above:
SMILES = C#Cc1cc(-c2cc(Nc3nc(N[C@@H](C)c4ccc(F)cn4)ncc3Cl)n[nH]2)ccc1C=O; target = High affinity nerve growth factor receptor (NTRK1, Homo sapiens, UniProt P04629, A608D/G595R); test = enzyme activity, inhibitor; setting = 0.2 µM; inhibition = 101%
SMILES = Cc1cc2c(cc1N1C(=O)c3cccc4c(CCCO)ccc(c34)C1=O)n(C)c(=O)n2C (racemic); target = ATPase family AAA domain-containing protein 2 (ATAD2, Homo sapiens, UniProt Q6PL18); test = binding, BROMOscan binding; setting = 100 nM; inhibition = 93%
SMILES = COc1cc2c(cc1OC)C(=O)C(CC1CCN(Cc3ccccc3)CC1)C2 (stereo not shown); target = HTR3A; test = radioligand binding; setting = concentration not given, added: [3H]GR65630; inhibition = 10.7%
